Assay results collected from several papers.
A part holds a random share of what one study measured.
UniProt Q9H2K8, sequence (whole entry, looked up): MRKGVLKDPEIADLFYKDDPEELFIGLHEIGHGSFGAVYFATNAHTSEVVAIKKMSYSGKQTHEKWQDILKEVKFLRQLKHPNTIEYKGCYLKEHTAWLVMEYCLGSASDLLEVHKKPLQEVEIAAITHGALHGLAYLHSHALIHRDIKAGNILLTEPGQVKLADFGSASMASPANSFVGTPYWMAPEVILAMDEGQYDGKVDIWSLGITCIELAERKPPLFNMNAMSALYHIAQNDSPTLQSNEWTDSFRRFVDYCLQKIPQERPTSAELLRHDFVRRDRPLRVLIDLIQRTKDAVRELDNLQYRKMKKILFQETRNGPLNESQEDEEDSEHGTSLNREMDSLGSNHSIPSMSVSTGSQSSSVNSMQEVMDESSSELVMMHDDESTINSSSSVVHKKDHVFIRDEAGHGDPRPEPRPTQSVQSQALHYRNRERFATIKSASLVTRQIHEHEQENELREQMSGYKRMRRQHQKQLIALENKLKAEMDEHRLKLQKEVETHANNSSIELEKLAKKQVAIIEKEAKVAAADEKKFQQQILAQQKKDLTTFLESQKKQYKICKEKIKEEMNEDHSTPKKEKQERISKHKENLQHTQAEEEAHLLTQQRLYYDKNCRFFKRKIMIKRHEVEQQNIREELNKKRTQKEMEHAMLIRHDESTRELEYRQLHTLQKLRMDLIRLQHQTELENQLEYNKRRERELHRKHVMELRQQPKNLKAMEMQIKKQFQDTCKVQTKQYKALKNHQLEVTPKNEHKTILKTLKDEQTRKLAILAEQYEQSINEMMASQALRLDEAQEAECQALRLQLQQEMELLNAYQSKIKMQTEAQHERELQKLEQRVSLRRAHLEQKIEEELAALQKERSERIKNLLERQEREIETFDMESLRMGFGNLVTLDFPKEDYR
UniProt P42336, sequence (whole entry, unmodified, looked up): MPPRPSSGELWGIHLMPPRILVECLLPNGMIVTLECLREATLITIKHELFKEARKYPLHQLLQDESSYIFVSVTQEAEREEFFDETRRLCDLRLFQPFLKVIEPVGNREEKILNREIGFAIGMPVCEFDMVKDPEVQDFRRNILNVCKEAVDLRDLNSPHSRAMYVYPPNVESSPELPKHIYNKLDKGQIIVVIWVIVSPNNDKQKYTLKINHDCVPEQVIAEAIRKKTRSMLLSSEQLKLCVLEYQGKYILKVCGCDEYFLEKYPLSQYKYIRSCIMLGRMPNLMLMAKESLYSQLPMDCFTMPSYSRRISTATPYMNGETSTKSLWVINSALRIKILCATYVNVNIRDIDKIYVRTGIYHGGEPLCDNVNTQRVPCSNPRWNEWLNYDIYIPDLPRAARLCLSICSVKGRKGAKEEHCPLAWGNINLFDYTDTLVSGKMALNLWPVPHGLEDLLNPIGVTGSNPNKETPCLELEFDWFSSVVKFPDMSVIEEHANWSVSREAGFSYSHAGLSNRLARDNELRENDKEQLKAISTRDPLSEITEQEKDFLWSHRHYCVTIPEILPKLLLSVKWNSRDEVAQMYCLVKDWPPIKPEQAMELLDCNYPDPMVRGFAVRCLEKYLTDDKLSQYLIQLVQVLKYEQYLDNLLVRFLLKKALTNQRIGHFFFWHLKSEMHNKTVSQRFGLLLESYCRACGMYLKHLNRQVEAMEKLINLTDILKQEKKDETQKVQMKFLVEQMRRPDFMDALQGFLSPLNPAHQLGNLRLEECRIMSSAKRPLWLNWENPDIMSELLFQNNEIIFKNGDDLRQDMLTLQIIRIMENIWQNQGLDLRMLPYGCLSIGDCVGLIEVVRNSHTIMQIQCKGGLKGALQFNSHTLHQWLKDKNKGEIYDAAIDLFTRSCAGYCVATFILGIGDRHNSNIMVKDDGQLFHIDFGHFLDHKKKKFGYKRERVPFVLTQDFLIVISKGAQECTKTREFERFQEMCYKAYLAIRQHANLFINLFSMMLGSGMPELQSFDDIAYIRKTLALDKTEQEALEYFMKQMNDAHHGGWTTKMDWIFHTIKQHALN
UniProt O14730, sequence (whole entry, looked up): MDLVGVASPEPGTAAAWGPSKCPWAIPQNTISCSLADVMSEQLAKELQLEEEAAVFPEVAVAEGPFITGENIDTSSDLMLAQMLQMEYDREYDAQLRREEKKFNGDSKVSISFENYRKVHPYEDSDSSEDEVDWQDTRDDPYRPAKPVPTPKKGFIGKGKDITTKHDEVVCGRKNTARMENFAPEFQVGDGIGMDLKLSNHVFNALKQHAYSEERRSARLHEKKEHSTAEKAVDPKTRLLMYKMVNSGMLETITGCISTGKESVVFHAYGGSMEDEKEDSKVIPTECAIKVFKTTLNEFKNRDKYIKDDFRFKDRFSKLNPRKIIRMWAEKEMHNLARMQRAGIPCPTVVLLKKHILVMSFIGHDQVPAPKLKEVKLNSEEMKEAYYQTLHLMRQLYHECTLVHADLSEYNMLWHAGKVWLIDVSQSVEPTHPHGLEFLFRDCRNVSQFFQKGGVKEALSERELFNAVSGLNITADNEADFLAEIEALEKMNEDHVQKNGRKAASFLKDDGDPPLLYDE
UniProt Q9UM73, sequence (whole entry, looked up): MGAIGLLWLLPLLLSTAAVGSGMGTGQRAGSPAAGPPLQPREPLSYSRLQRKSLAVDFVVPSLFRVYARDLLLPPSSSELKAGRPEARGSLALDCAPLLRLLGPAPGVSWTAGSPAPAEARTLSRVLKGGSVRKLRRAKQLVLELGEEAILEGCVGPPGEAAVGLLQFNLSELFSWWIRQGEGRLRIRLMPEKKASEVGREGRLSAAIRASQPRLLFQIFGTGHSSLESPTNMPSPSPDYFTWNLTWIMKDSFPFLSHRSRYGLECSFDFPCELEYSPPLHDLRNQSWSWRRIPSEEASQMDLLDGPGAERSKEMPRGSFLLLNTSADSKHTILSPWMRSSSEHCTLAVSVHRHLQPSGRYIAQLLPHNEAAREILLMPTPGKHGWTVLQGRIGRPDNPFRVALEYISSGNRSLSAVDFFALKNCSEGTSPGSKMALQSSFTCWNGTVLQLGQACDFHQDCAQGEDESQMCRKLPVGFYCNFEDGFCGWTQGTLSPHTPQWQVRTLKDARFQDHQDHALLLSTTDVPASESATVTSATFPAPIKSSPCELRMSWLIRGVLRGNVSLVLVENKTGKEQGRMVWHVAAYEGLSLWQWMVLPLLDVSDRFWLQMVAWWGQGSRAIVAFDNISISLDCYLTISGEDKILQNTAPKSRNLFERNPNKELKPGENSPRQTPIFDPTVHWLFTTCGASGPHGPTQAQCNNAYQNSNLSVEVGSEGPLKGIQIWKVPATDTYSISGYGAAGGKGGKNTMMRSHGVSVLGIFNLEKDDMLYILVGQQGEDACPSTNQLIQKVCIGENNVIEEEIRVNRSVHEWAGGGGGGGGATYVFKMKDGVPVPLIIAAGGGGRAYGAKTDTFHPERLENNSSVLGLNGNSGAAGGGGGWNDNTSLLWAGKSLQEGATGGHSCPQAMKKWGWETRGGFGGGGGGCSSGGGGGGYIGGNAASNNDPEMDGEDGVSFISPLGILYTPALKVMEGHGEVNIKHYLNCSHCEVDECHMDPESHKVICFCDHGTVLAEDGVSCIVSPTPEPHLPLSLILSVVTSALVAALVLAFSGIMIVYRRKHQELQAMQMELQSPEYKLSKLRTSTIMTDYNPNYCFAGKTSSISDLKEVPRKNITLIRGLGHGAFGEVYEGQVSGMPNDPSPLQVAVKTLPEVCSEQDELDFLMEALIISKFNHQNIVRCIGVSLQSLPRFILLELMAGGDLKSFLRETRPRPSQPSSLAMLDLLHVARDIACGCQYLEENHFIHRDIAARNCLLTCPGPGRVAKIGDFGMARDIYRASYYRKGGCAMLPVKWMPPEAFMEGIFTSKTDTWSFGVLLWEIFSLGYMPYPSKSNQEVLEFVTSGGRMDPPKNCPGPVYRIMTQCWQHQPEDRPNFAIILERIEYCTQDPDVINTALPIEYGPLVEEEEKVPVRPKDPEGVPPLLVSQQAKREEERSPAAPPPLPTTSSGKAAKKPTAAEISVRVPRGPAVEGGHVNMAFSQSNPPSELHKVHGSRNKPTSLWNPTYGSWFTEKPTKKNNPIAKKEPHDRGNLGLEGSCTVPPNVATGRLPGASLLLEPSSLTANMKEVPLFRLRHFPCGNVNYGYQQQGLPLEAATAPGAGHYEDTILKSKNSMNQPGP
UniProt Q00526, sequence (whole entry, looked up): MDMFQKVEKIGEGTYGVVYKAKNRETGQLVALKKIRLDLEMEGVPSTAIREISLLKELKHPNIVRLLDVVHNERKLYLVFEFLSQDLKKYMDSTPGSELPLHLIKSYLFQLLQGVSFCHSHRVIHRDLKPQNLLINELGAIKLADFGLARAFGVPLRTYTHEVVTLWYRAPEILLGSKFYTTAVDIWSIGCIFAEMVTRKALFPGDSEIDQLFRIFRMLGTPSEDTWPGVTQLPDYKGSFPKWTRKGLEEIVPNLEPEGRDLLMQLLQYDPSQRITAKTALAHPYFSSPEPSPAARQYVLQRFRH

Set 1 — technique: competitive binding panel; concentration: 1 µM; relative to: vehicle
Compound: CN1CCN(C(=O)c2ccc(NC(=O)Nc3ccc(N(C)c4ccnc(Nc5ccc(CS(C)(=O)=O)cc5)n4)cc3)cc2)CC1
target | measured | remaining binding
MAP3K11 (Homo sapiens, UniProt Q16584) | MLK3 | 91%
CDK9 (Homo sapiens, UniProt P50750) | – | 69%
ABL2 (Homo sapiens, UniProt P42684) | – | 44%
RIOK3 (Homo sapiens, UniProt O14730) | – | 0%
PRKCE (Homo sapiens, UniProt Q02156) | – | 99%
CDK2 (Homo sapiens, UniProt P24941) | – | 87%
MYLK (Homo sapiens, UniProt Q15746) | – | 100%
Aurora kinase B (AURKB, Homo sapiens, UniProt Q96GD4) | – | 0.4%
PIK3CA (Homo sapiens, UniProt P42336, H1047Y) | – | 100%
PIK3CA (Homo sapiens, UniProt P42336) | – | 98%
DAPK1 (Homo sapiens, UniProt P53355) | – | 95%

Set 2 — read-out: cell-free assay; technique: competition with immobilised ligand; concentration: 1 µM
SMILES: CCS(=O)(=O)c1cc2cc(C[C@@](O)(CC(C)(C)c3ccc(F)cc3C(N)=O)C(F)(F)F)[nH]c2cn1
target | remaining binding [%]
Non-receptor tyrosine-protein kinase TYK2, JH1 (TYK2, Homo sapiens, UniProt P29597) | 82
MYLK3 (Homo sapiens, UniProt Q32MK0) | 80
Ribosomal protein S6 kinase alpha-5, N-terminal kinase domain (RPS6KA5, Homo sapiens, UniProt O75582) | 100
KIT (Homo sapiens, UniProt P10721, V559D/V654A) | 81
MAP3K9 (Homo sapiens, UniProt P80192) | 96
PLK4 (Homo sapiens, UniProt O00444) | 87
MAP3K2 (Homo sapiens, UniProt Q9Y2U5) | 100
PLK1 (Homo sapiens, UniProt P53350) | 85
STK26 (Homo sapiens, UniProt Q9P289) | 91
AKT3 (Homo sapiens, UniProt Q9Y243) | 90
TAOK3 (Homo sapiens, UniProt Q9H2K8) | 78
DDR2 (Homo sapiens, UniProt Q16832) | 100

Set 3 — read-out: enzyme activity; action: inhibitor; concentration: 10 µM
Target: Calcium/calmodulin-dependent protein kinase type II subunit alpha (CAMK2A, Homo sapiens, UniProt Q9UQM7)
UniProt Q9UQM7, sequence (whole entry, looked up): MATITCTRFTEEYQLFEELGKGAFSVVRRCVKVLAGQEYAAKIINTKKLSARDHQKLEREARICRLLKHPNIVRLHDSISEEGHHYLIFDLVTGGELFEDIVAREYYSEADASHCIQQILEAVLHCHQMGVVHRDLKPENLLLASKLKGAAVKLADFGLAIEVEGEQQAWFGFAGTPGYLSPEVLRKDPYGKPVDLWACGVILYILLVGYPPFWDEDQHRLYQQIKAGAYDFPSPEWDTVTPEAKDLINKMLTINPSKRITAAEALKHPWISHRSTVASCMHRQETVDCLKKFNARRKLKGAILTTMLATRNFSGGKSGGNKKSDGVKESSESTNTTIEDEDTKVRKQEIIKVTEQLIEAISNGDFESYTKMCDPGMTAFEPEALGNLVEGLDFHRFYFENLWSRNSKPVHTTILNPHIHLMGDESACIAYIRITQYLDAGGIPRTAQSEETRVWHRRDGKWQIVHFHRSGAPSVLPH
SMILES | inhibition [%]
COc1cc(C=O)cc(OC)c1O | -18
CO[C@H]1C[C@@H]2CC[C@@H](C)[C@@](O)(O2)C(=O)C(=O)N2CCCC[C@H]2C(=O)O[C@H]([C@H](C)C[C@@H]2CC[C@@H](O)[C@H](OC)C2)CC(=O)[C@H](C)/C=C(\C)[C@@H](O)[C@@H](OC)C(=O)[C@H](C)C[C@H](C)/C=C/C=C/C=C/1C | 6
CC[C@H](C)C(=O)O[C@H]1C[C@H](O)C=C2C=C[C@H](C)[C@H](CC[C@@H](O)C[C@@H](O)CC(=O)O)[C@H]21 | 15
O=C(O)Cc1cc(O)ccc1O[C@@H]1O[C@H](CO)[C@@H](O)[C@H](O)[C@H]1O | 7
C[C@@H](CO)[C@@H]1CC[C@@]2(CC[C@]3(C)[C@H](CC[C@@H]4[C@@]5(C)CC[C@H](O[C@@H]6O[C@H](CO)[C@@H](O)[C@H](O)[C@H]6O[C@@H]6O[C@H](CO)[C@@H](O)[C@H](O)[C@H]6O)[C@@](C)(CO[C@@H]6O[C@H](CO)[C@@H](O)[C@H](O)[C@H]6O)[C@@H]5CC[C@]43C)[C@H]2O)CO1 | 21
Cc1ccc(S(=O)(=O)NC(=O)NN2CC3CCC[C@@H]3C2)cc1 (stereo in doubt) | 4
Oc1cc2c(cc1O)[C@@H]1c3ccc(O)c(O)c3OC[C@]1(O)C2 | 8
O=C(/C=C/c1ccc(O)c(O)c1)OCCc1ccccc1 | -7
CC(=O)NC[C@H]1CN(c2ccc(N3CCOCC3)c(F)c2)C(=O)O1 | -16
CC(=O)[C@H]1CC[C@H]2[C@@H]3CC=C4C[C@@H](O)CC[C@]4(C)[C@H]3CC[C@]12C | 6
Nc1nc2ncc([C@H](O)[C@H](O)CO)nc2c(=O)[nH]1 | -14
C=C[C@@]1(C)CC(=O)[C@]2(O)[C@@]3(C)[C@@H](O)CCC(C)(C)[C@@H]3[C@H](O)[C@H](OC(C)=O)[C@@]2(C)O1 | -30
COC(=O)CCc1ccc(OCC(O)CNC(C)C)cc1 (stereo not shown) | 0
C[C@H]1CC[C@@]2(OC1)O[C@H]1C[C@H]3[C@@H]4CC[C@@H]5C[C@@H](O[C@@H]6O[C@H](CO)[C@H](O)[C@H](O)[C@H]6O)CC[C@]5(C)[C@H]4CC[C@]3(C)[C@H]1[C@@H]2C | -20
CCCCCCCCCCC(=O)O | -6

Set 4 — read-out: enzyme activity; action: inhibitor; concentration: 0.5 µM; relative to: control
SMILES: Cc1nc(Nc2ncc(C(=O)Nc3c(C)cccc3Cl)s2)cc(N2CCN(CCO)CC2)n1
target | remaining activity [%]
AKT1 (Homo sapiens, UniProt P31749) | 96.7
ALK (Homo sapiens, UniProt Q9UM73) | 110
ITK (Homo sapiens, UniProt Q08881) | 103
Insulin receptor (INSR, Homo sapiens, UniProt P06213) | 97.2
MATK (Homo sapiens, UniProt P42679) | 79
TAOK3 (Homo sapiens, UniProt Q9H2K8) | 95.3
MARK3 (Homo sapiens, UniProt P27448) | 97.8
PKN1 (Homo sapiens, UniProt Q16512) | 90
NLK (Homo sapiens, UniProt Q9UBE8) | 27.5
CDC42BPA (Homo sapiens, UniProt Q5VT25) | 99.2
LIM domain kinase 1 (LIMK1, Homo sapiens, UniProt P53667) | 16.7
FYN (Homo sapiens, UniProt P06241) | 1.96
HIPK1 (Homo sapiens, UniProt Q86Z02) | 99.5
FER (Homo sapiens, UniProt P16591) | 95.9
FLT4 (Homo sapiens, UniProt P35916) | 92.1
Cyclin-dependent kinase 3, with cyclin E (CDK3, Homo sapiens, UniProt Q00526) | 91.7
FGR (Homo sapiens, UniProt P09769) | 1.7
PRKX (Homo sapiens, UniProt P51817) | 105
PASK (Homo sapiens, UniProt Q96RG2) | 110
STK25 (Homo sapiens, UniProt O00506) | 83.8

Repeated from above (set 3):
SMILES | inhibition [%]
Oc1cc2c(cc1O)[C@@H]1c3ccc(O)c(O)c3OC[C@]1(O)C2 | 8
O=C(/C=C/c1ccc(O)c(O)c1)OCCc1ccccc1 | -7
CC(=O)NC[C@H]1CN(c2ccc(N3CCOCC3)c(F)c2)C(=O)O1 | -16
CC(=O)[C@H]1CC[C@H]2[C@@H]3CC=C4C[C@@H](O)CC[C@]4(C)[C@H]3CC[C@]12C | 6
Nc1nc2ncc([C@H](O)[C@H](O)CO)nc2c(=O)[nH]1 | -14
C=C[C@@]1(C)CC(=O)[C@]2(O)[C@@]3(C)[C@@H](O)CCC(C)(C)[C@@H]3[C@H](O)[C@H](OC(C)=O)[C@@]2(C)O1 | -30
COC(=O)CCc1ccc(OCC(O)CNC(C)C)cc1 (stereo not shown) | 0
C[C@H]1CC[C@@]2(OC1)O[C@H]1C[C@H]3[C@@H]4CC[C@@H]5C[C@@H](O[C@@H]6O[C@H](CO)[C@H](O)[C@H](O)[C@H]6O)CC[C@]5(C)[C@H]4CC[C@]3(C)[C@H]1[C@@H]2C | -20
CCCCCCCCCCC(=O)O | -6
